Measured values collected from several papers.
Each line is one published result; not all experiments were run side by side. ± gives the spread as reported.

Structure (SMILES) | cell line | assay | conditions | scale | EC50 [nM]
O=C1Nc2cccc(C#CC3(O)CCNCC3)c2/C1=C/c1cc2ccccc2[nH]1 | C8161.9 | gelatin degradation, inhibitor | short-term | – | < 50
COC(=O)[C@@]1(C)C=C(C(=O)OCc2cccc(C(=O)Nc3ccc(Nc4nccc(-c5cccnc5)n4)c(C)c3)c2)C(=O)CC1 | SH-SY5Y MKK7-activated cells | c-Jun Ser73 phosphorylation, inhibitor, Western blot | 6 h, added: doxycycline | – | 7330 ± 3600
O=C(Nc1ccc([N+](=O)[O-])cc1)N[C@@H](Cc1c[nH]c2ccccc12)C(=O)NCC1(c2ccccc2)CCCCC1 | human neutrophils | chemotaxis, agonist | – | – | 220 ± 70
COCCCn1nc(-c2ccc(CC(=O)Nc3cc(C(C)(C)C)on3)cc2)c2c(N)ncnc21 | A549 | cell viability | – | – | 5920 ± 1330
COC(=O)c1ccc(NC(=O)CSc2nc3ccc(OC)cc3[nH]2)cc1 | human neutrophils | calcium mobilization, agonist | – | – | 900
Cc1cc(NC(=O)c2cccc(NC(=O)C3=CC(C)(C)CCC3=O)c2)ccc1Nc1nccc(-c2cccnc2)n1 | SH-SY5Y MKK7-activated cells | c-Jun Ser73 phosphorylation, inhibitor, Western blot | 6 h, added: doxycycline | – | 3350 ± 370
O=C(Nc1ccc([N+](=O)[O-])cc1)N[C@@H](Cc1c[nH]c2ccccc12)C(=O)NCC1(c2ccccn2)CCCCC1 | human neutrophils | Ca2+ mobilization, agonist | added: probenecid 2.5 mM | – | 680
N#Cc1ccc(C[C@H](NC(=O)Nc2ccc(O)cc2)C(=O)NCC2(c3ccccc3)CC2)cc1 | N9 mouse microglia | MTT | 24 h, resting conditions | – | > 100000
COC(=O)C1(C)C=C(C(=O)Nc2cccc(C(=O)Nc3ccc(Nc4nccc(-c5cccnc5)n4)c(C)c3)c2)C(=O)C1 (stereo not shown) | SH-SY5Y MKK7-activated cells | c-Jun Ser63 phosphorylation, inhibitor, HTRF | 6 h, added: doxycycline | – | 220 ± 25
COc1ccc2nc(SCC(=O)Nc3ccc(SC)cc3)[nH]c2c1 | human neutrophils | calcium mobilization, agonist | – | – | 500
CCN1CCN(Cc2ccc(Nc3ncc4c(n3)Sc3ccccc3C(=O)N4C)cc2C(F)(F)F)CC1 | HT-29 | cell growth, CellTiter-Glo | 96 h | – | 3800
C=CC(=O)Nc1cccc(N(C(=O)OCc2ccc(F)cc2)c2ccnc(Nc3ccn(C)n3)n2)c1 | Ba/F3 EGFR D770_N771insSVD | cell growth | – | above 10 µM not active | 37 ± 3.4
COc1ccc(NC(=O)N[C@@H](Cc2ccc(C#N)cc2)C(=O)NCC2(c3ccc(O)cc3)CC2)cc1 | N9 mouse microglia | MTT | 24 h, resting conditions | – | 21800
CCOc1ccc2nc(SCC(=O)Nc3ccc(Cl)cc3)[nH]c2c1 | human neutrophils | calcium mobilization, agonist | – | – | 1300
Cn1nc(-c2ccc(CC(=O)Nc3cc(C(C)(C)C)on3)cc2)c2c(N)ncnc21 | KM12 | cell viability | – | – | 710 ± 70
COc1ccc(C2(CNC(=O)[C@H](Cc3c[nH]c4ccccc34)NC(=O)Nc3ccc([N+](=O)[O-])cc3)CCCCC2)cc1 | human neutrophils | Ca2+ mobilization, agonist | added: probenecid 2.5 mM | – | 5600 ± 1600
CCOc1ccc2nc(SCC(=O)Nc3ccc(Br)cc3)[nH]c2c1 | human neutrophils | calcium mobilization, agonist | – | – | 11200
Cc1cc(NC(=O)c2cccc(NC(=O)C3=CC(C)(C)CC3=O)c2)ccc1Nc1nccc(-c2cccnc2)n1 | SH-SY5Y MKK7-activated cells | c-Jun Ser73 phosphorylation, inhibitor, Western blot | 6 h, added: doxycycline | – | 6710 ± 980
O=C(Nc1ccc([N+](=O)[O-])cc1)N[C@@H](Cc1c[nH]c2ccccc12)C(=O)NCC1(c2ccccc2)CC1 | human neutrophils | Ca2+ mobilization, agonist | added: probenecid 2.5 mM | – | 2300 ± 510
